Results of several laboratories.
Protocols differ between the studies behind these lines. Numbers after ± are the reported error.

| SMILES | assay | test system | conditions | how to read | measurement | result |
| --- | --- | --- | --- | --- | --- | --- |
| CC(C)[C@H](NC(=O)[C@H](Cc1c[nH]c2ccccc12)NC(=O)[C@H](Cc1ccccc1)NC(=O)[C@@H](NC(=O)[C@@H](NC(=O)[C@H](CCCCN)NC(=O)[C@@H](N)CCCCN)C(C)C)C(C)C)C(=O)N[C@@H](CCCCN)C(=O)N[C@@H](Cc1ccccc1)C(=O)N[C@@H](CCCCN)C(N)=O | ELISA, item: IL-1β | mouse, blood | iv, 500 µg/kg, 5 days |  | cytokine level | 0.47 ± 0.03 ng/mL |
| CC(=O)OC1O[C@@H]2O[C@@]3(C)CC[C@H]4[C@H](C)CCC([C@H]1C)[C@@]24OO3 (stereo partly drawn) |  | Tg(fli1:EGFP) zebrafish embryos | 100 µg/mL, up to 48 hpf |  | dead embryos | 4 count |
| CC(C)C[C@H](NC(=O)CNC(=O)[C@H](CCC(=O)O)NC(=O)[C@H](CCCCN)NC(=O)[C@H](CC(C)C)NC(=O)[C@H](C)NC(=O)[C@H](C)NC(=O)CNC(=O)[C@H](C)NC(=O)[C@H](CCCCN)NC(=O)[C@H](CCC(=O)O)NC(=O)[C@H](CC(C)C)NC(=O)[C@H](CCCCN)NC(=O)[C@H](CCCCN)NC(=O)[C@H](CC(C)C)NC(=O)[C@H](CC(C)C)NC(=O)[C@H](CCCCN)NC(=O)[C@H](Cc1c[nH]c2ccccc12)NC(=O)[C@@H](N)CCCCN)C(=O)N[C@@H](CC(C)C)C(=O)N[C@@H](CCCCN)C(=O)N[C@@H](C)C(=O)NCC(=O)N1CCC[C@H]1C(=O)N[C@@H](C)C(=O)N[C@@H](CC(C)C)C(=O)N[C@@H](C)C(=O)N[C@@H](CC(C)C)C(=O)N[C@@H](CC(C)C)C(=O)NCC(=O)N[C@@H](C)C(=O)N[C@@H](C)C(=O)N[C@@H](C)C(=O)N[C@@H](C)C(=O)N[C@@H](CC(C)C)C(=O)N[C@@H](C)C(=O)N[C@@H](CCCCN)C(N)=O | circular dichroism | POPC/POPG 1:1 vesicles | 20 µM |  | helicity | 70% |
| CSCC[C@H](NC(=O)CNC(=O)[C@H](CCCCN)NC(=O)[C@H](CC(C)C)NC(=O)[C@@H]1CCCN1C(=O)[C@H](CO)NC(=O)[C@H](Cc1c[nH]cn1)NC(=O)[C@H](Cc1c[nH]c2ccccc12)NC(=O)[C@H](CCCNC(=N)N)NC(=O)[C@H](CC(C)C)NC(=O)[C@H](CCCNC(=N)N)NC(=O)[C@H](Cc1c[nH]c2ccccc12)NC(=O)[C@H](CS)NC(=O)CCCCCNC(=O)CN1CCN(CC(=O)O)CCN(CC(=O)O)CCN(CC(=O)O)CC1)C(=O)O [copper-64 labelled] | radio-HPLC | mouse serum | 2 h, 37 °C |  | intact tracer remaining | 91.9% |
| CCOP(=O)(OCC)OCCCCOC(=O)CC1=C(C)C(=Cc2ccc([S+](C)[O-])cc2)c2ccc(F)cc21 (stereo not drawn) |  | lung | i.p. and i.v. | relative to: inhalation | intact drug in lungs | < 12% |
| N=C(N)NCc1ccc(C(=O)NCCCC[C@H](NC(=O)N[C@@H](CCC(=O)O)C(=O)O)C(=O)O)cc1[211At] |  | SCID mouse, PC-3 xenografts, lungs | 2 h |  | tissue uptake | 1.99 ± 0.23 %ID/g |
| N#CC1(c2ccc3c(N)ncnn23)OC(COP(=O)(O)OP(=O)(O)OP(=O)(O)O)C(O)C1O (stereo not drawn) | LC-MS/MS | CD-1 mouse, liver | oral, 100 mg/kg of remdesivir |  | AUC(0-t) | 28200 nmol·h/kg |
| O=c1cc(-c2ccccc2)oc2c(Br)c(O)c(O)c(O)c12 |  | C57BL/6 mouse, plasma | po, 250 mg/kg |  | AUC extrapolated percentage | 5.3 ± 4.3% |
| CC(CCC(=O)NCC(=O)O)C1CCC2C3CCC4CC(OC5OC(C(=O)O)C(O)C(O)C5O)CCC4(C)C3CC(O)C12C (stereo not drawn) |  | human, SLCO1B1 *14/*14, plasma | geometric mean, sex-adjusted |  | plasma concentration | 0.0125 µg/mL |
| CCCCCCCC/C=C\CCCCCCCCOP(O)(O)=S.N |  | mouse, irradiated | subcutaneous, dose not given | relative to: non-irradiated mice | half-life change | no effect |
| CCCC[C@H]1C(=O)N(C)[C@@H](CCCC)C(=O)N[C@@H](CCCNC(=O)CN2CCN(CC(=O)O)CCN(CC(=O)O)CCN(CC(=O)O)CC2)C(=O)N[C@H](C(=O)NCC(N)=O)CSCC(=O)N[C@@H](Cc2ccc(O)cc2)C(=O)N(C)[C@@H](C)C(=O)N[C@@H](CC(N)=O)C(=O)N2CCC[C@H]2C(=O)N[C@@H](Cc2c[nH]cn2)C(=O)N[C@@H](CC(C)C)C(=O)N(C)CC(=O)N[C@@H](Cc2c[nH]c3ccccc23)C(=O)N[C@@H](CO)C(=O)N[C@@H](Cc2c[nH]c3ccccc23)C(=O)N1C [gallium-68 labelled] | static PET | NOD/SCID mice, CHO-hPD-L1 xenograft, CHO-hPD-L1 tumour | intravenous, 60 min post injection |  | tumour to muscle ratio | 9.41 ± 1.21 |
| CC(C)(C)c1ccc(COc2cc3c(=O)c(C(=O)NCCNCCO)cn(Cc4ccccc4)c3cc2Cl)cc1 | metabolic stability | human, liver microsomes | 1 µM |  | microsomal CLint | < 11.6 µL/min/mg |
| CC(C)(O)c1ccccc1CC[C@H](c1cccc(/C=C/c2ccc3ccc(Cl)cc3n2)c1)[S+]([O-])CC1(CC(=O)O)CC1 (stereo partly drawn) |  | human liver cytosol | 1 µM, 30 min, 1 mg/mL protein |  | percent metabolized | 9.87% |
| COc1cc(NC(=O)C(=O)c2c(C)n(Cc3ccc(Cl)cc3)c3ccc(C)cc23)ccn1 |  | male cynomolgus monkey, plasma | intravenous, 1 mg/kg |  | clearance | 0.48 L/h/kg |
| CSCC[C@@H]1NC(=O)[C@@H]2CSSC[C@H](NC(=O)[C@H](CO)NC(=O)[C@H](C)N)C(=O)N[C@@H](CCCNC(=N)N)C(=O)N[C@@H]([C@@H](C)O)C(=O)N3CCC[C@H]3C(=O)N[C@@H](CCCCN)C(=O)N[C@@H](CC(=O)O)C(=O)N[C@H]3CSSC[C@H](NC(=O)[C@H](CCCCN)NC(=O)[C@H](CCCNC(=N)N)NC(=O)[C@H](CC(N)=O)NC1=O)C(=O)N[C@@H](CCCCN)C(=O)N[C@H]1CSSC[C@H](NC(=O)[C@@H]4CCCN4C(=O)[C@H](CC(=O)O)NC(=O)[C@H](C)NC3=O)C(=O)N[C@@H](C)C(=O)N[C@@H](CCCCN)C(=O)N[C@@H](CCC(=O)O)C(=O)N[C@@H]([C@@H](C)O)C(=O)NCC(=O)N[C@@H](CSSC[C@@H](C(N)=O)NC(=O)[C@H](CCCNC(=N)N)NC(=O)[C@H](CC(N)=O)NC1=O)C(=O)N1CCC[C@H]1C(=O)N[C@@H](Cc1ccc(O)cc1)C(=O)NCC(=O)N[C@@H](CCCCN)C(=O)N2 |  | DA rat pristane-induced arthritis, serum | subcutaneous, 0.1 mg/kg once weekly, 21 days |  | Chloride | 109 mmol/L |
| CSCC[C@H](NC(=O)CNC(=O)[C@H](CC(=O)O)NC(=O)[C@@H](NC(=O)[C@@H](NC(=O)[C@@H](NC(=O)CNC(=O)[C@H](CCC(N)=O)NC(=O)[C@H](CCSC)NC(=O)[C@H](CC(=O)O)NC(=O)[C@H](C)NC(=O)[C@H](C)NC(=O)[C@@H](NC(=O)[C@H](CO)NC(=O)[C@@H](N)CC(C)C)[C@@H](C)O)C(C)C)C(C)C)[C@@H](C)O)C(=O)N[C@@H](C)C(=O)N[C@@H](CO)C(=O)NCC(=O)N[C@@H](CC(C)C)C(=O)N[C@@H](CC(=O)O)C(=O)N[C@@H](CCCCN)C(=O)N[C@@H](CC(=O)O)C(=O)N[C@@H](Cc1ccc(O)cc1)C(=O)N[C@@H](CC(C)C)C(=O)N[C@@H](CCCCN)C(=O)N1CCC[C@H]1C(=O)N[C@@H](CC(=O)O)C(=O)N[C@@H](CC(=O)O)C(=O)O |  | human, serum | intravenous, 0.83 mg/kg, patients, infusion |  | clearance | 3.43 L/h/kg |
| CCCCCCCCCCCCC(=O)O.O=C1CCCC2C3CCCN4CCCC(CN12)C34 (stereo not drawn) | electrical conductivity | water | 293.15 K |  | entropic term −TΔS of aggregation | -31.6 kJ/mol |
| CC[C@H](C)[C@H](NC(=O)[C@H](Cc1ccccc1)NC(=O)[C@H](CCC(=O)O)NC(=O)[C@H](CCCCN)NC(=O)[C@H](C)NC(=O)[C@H](C)NC(=O)[C@H](CCC(N)=O)NC(=O)CNC(=O)[C@H](CCC(=O)O)NC(=O)[C@H](CC(C)C)NC(=O)[C@H](Cc1ccc(O)cc1)NC(=O)[C@H](CO)NC(=O)[C@H](CO)NC(=O)[C@@H](NC(=O)[C@H](CC(=O)O)NC(=O)[C@H](CO)NC(=O)[C@@H](NC(=O)[C@H](Cc1ccccc1)NC(=O)[C@@H](NC(=O)CNC(=O)[C@H](CCC(=O)O)NC(=O)CNC(=O)[C@@H](N)Cc1c[nH]cn1)[C@@H](C)O)[C@@H](C)O)C(C)C)C(=O)N[C@@H](C)C(=O)N[C@@H](Cc1c[nH]c2ccccc12)C(=O)N[C@@H](CC(C)C)C(=O)N[C@H](C(=O)N[C@@H](CCCCN)C(=O)NCC(=O)N[C@@H](CCCNC(=N)N)C(=O)N[C@@H](CSC1CC(=O)N(CCC(=O)NCCCCC(NC(=O)CCN2C(=O)CC(SC[C@H](NC(=O)[C@H](CCCNC(=N)N)NC(=O)CNC(=O)[C@H](CCCCN)NC(=O)[C@@H](NC(=O)[C@H](CC(C)C)NC(=O)[C@H](Cc3c[nH]c4ccccc34)NC(=O)[C@H](C)NC(=O)[C@@H](NC(=O)[C@H](Cc3ccccc3)NC(=O)[C@H](CCC(=O)O)NC(=O)[C@H](CCCCN)NC(=O)[C@H](C)NC(=O)[C@H](C)NC(=O)[C@H](CCC(N)=O)NC(=O)CNC(=O)[C@H](CCC(=O)O)NC(=O)[C@H](CC(C)C)NC(=O)[C@H](Cc3ccc(O)cc3)NC(=O)[C@H](CO)NC(=O)[C@H](CO)NC(=O)[C@@H](NC(=O)[C@H](CC(=O)O)NC(=O)[C@H](CO)NC(=O)[C@@H](NC(=O)[C@H](Cc3ccccc3)NC(=O)[C@@H](NC(=O)CNC(=O)[C@H](CCC(=O)O)NC(=O)CNC(=O)[C@@H](N)Cc3c[nH]cn3)[C@@H](C)O)[C@@H](C)O)C(C)C)[C@@H](C)CC)C(C)C)C(N)=O)C2=O)C(=O)NCCCCCCN)C1=O)C(N)=O)C(C)C (stereo partly drawn) |  | Kunming mouse, plasma | subcutaneous, 50 nmol/kg |  | t1/2 | 1.8 ± 0.2 h |
| CC[C@@H](C)[C@@H](NC(=O)[C@@H](CCCCN)NC(=O)[C@H](NC(=O)[C@@H](Cc1c[nH]c2ccccc12)NC(=O)[C@@H](Cc1ccccc1)NC(=O)[C@@H](CCC(N)=O)NC(=O)[C@@H](CC(N)=O)NC(=O)[C@@H](CCCNC(=N)N)NC(=O)[C@@H](CCCNC(=N)N)NC(=O)[C@@H](CCSC)NC(=O)[C@@H](CCCCN)NC(=O)[C@@H](Cc1c[nH]c2ccccc12)NC(=O)[C@@H](CCCCN)NC(=O)[C@@H](CCCCN)NC(=O)CNC(=O)[C@@H](CCCCN)NC(=O)CNC(=O)[C@@H](CCC(N)=O)NC(=O)[C@@H](Cc1c[nH]cn1)NC(=O)[C@H](N)CCCNC(=N)N)[C@H](C)CC)C(=O)N[C@H](CCC(N)=O)C(=O)N[C@H](CCCNC(=N)N)C(=O)O |  | PAMPA | 2 mg/mL, 5 h, pH 7.4 |  | Papp | 18.8 nm/s |
| CC(C)[C@H](NC(=O)CNC(=O)[C@H](CCC(N)=O)NC(=O)[C@H](C)N)C(=O)O | item: short-lasting dizziness | human | concentration not given, continuous infusion, highest dose |  | subjects with adverse event | 33% |
| CC[C@H](C)C(=O)N1CCC(NC(=O)Nc2ccc(OC(F)(F)F)c(F)c2)CC1 |  | healthy volunteers | oral, 2 mg single dose |  | subjects with palpitations TEAE | 16.7% |

For quick reference, copied from above:
| SMILES | assay | test system | conditions | how to read | measurement | result |
| --- | --- | --- | --- | --- | --- | --- |
| CCCCCCCC/C=C\CCCCCCCCOP(O)(O)=S.N |  | mouse, irradiated | subcutaneous, dose not given | relative to: non-irradiated mice | half-life change | no effect |
| CC(C)(C)c1ccc(COc2cc3c(=O)c(C(=O)NCCNCCO)cn(Cc4ccccc4)c3cc2Cl)cc1 | metabolic stability | human, liver microsomes | 1 µM |  | microsomal CLint | < 11.6 µL/min/mg |
